Assay results pooled from the literature.
Every numbered part comes from another study and shows a few of its results, in no order. “And” joins repeats or separate records; there may be more than shown.
UniProt Q16584, sequence (whole entry, looked up): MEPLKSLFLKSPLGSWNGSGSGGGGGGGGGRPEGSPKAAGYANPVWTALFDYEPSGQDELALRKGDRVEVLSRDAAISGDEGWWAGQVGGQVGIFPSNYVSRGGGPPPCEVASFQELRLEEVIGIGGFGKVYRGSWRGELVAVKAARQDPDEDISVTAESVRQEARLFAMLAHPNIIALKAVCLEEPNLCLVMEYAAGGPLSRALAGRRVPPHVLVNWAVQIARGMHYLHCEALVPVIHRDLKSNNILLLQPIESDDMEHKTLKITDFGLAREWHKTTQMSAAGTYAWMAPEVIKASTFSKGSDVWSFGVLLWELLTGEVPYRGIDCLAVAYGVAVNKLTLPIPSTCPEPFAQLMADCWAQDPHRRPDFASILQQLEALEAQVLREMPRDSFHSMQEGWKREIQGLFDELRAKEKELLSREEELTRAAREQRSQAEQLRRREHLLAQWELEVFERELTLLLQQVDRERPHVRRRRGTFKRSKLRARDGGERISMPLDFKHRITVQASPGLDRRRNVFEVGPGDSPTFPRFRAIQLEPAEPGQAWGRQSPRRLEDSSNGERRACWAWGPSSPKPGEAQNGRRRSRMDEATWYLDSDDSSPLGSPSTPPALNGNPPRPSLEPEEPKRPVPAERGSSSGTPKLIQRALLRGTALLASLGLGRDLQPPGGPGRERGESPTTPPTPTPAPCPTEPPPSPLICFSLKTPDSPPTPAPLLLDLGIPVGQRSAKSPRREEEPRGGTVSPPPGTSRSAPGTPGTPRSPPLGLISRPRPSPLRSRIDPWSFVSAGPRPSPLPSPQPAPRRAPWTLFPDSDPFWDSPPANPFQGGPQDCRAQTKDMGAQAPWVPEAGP
UniProt P48736, sequence (whole entry, looked up): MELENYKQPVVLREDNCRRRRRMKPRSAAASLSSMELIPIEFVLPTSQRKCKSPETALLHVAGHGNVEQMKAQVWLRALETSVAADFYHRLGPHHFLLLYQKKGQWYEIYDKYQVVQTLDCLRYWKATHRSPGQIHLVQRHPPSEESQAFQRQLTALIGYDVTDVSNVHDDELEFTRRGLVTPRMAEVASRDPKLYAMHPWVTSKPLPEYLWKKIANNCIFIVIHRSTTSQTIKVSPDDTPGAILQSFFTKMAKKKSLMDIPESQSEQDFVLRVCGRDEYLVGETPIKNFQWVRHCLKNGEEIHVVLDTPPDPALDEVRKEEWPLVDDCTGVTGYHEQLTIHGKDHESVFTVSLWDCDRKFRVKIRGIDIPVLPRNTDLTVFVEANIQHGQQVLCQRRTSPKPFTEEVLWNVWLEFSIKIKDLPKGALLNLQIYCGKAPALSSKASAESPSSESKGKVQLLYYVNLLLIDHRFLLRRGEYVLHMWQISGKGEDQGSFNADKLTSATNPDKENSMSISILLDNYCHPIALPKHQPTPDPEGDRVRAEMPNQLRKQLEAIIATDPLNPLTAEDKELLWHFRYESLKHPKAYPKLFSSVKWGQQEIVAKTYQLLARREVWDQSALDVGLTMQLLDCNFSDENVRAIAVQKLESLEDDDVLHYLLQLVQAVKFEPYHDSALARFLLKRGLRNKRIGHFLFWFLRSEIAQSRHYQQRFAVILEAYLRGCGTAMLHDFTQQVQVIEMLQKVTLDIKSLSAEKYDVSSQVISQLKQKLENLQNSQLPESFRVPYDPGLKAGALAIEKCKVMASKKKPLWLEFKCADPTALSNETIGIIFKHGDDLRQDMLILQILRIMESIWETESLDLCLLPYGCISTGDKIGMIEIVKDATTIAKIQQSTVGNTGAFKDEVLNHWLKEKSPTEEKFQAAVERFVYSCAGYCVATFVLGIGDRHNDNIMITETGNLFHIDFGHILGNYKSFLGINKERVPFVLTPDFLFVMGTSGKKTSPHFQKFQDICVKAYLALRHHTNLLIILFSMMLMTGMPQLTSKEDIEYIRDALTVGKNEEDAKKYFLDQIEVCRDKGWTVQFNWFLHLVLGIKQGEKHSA
UniProt P48730, sequence (whole entry, looked up): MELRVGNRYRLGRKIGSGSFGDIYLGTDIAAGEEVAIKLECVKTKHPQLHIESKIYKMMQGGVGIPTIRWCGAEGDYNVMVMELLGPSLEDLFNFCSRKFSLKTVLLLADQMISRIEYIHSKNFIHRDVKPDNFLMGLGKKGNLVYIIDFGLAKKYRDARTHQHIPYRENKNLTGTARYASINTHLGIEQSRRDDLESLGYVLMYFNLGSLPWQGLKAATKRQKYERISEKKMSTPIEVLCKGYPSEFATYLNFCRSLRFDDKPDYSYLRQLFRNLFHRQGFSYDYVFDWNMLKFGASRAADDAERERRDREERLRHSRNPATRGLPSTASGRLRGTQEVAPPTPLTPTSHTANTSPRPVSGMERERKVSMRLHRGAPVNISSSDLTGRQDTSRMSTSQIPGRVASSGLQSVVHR

Series 1
SMILES: CC(C)n1cnc(-c2ccc(F)cc2)c1-c1ncc(C(=O)Nc2ccc(N3CCN(C)CC3)cc2)[nH]1
assay	test system	conditions	patients with TEAE
phase 2a trial	idiopathic pulmonary fibrosis patients	oral, 30 mg once daily, ESR increased, grade 3	0%
phase 2a trial	patients with idiopathic pulmonary fibrosis	dose not given, nervous system disorders SOC, grade 2, all arms	0%
measured: liver function test abnormal	idiopathic pulmonary fibrosis patients	30 mg once daily	0%

Series 2
Cell line: mouse MPNST tumor cells
Technique: high-content immunofluorescence imaging
Measured: nuclear SOX9
Tested at: 10 µM
Time: 12 h
Notes: mean of 2 replicates
Reference: DMSO control
Reading: higher = more nuclear SOX9
Compound	nuclear SOX9 intensity
CC(C)c1cc(N2CC[C@@H](N)C2)nc(N)n1	112 % of DMSO
Cc1nnc(C(C)C)n1C1C[C@H]2CC[C@@H](C1)N2CC[C@H](NC(=O)C1CCC(F)(F)CC1)c1ccccc1 (stereo in doubt)	83.7 % of DMSO and 91.7 % of DMSO
CCN(CC)CCOC(=O)C1(C2CCCCC2)CCCCC1	141 % of DMSO
Cc1ccc(S(=O)(=O)OCC(=O)Nc2ccc(C(=O)O)c(O)c2)cc1	112 % of DMSO

Series 3
SMILES: CCOc1ccc(Nc2c3c(nc4ccccc24)CCC3)cc1
Organism: Leishmania donovani
Strain: DD8
assay	test system	conditions	inhibition
parasite viability, resazurin	promastigotes	16.66 µM	93% and 99% and 91% and 92% and 89% and 98% and 100%
parasite viability, resazurin	promastigotes	0.0033 µM	-2% and 5% and -5% and -3%
parasite killing	intracellular amastigotes	0.4 µM, 48 h	25% and 20% and 38%
parasite killing	promastigotes	66.66 µM, 24 h	100% and 99%

Series 4
Target: DNA polymerase theta, ATPase domain (POLQ, Homo sapiens, UniProt O75417)
UniProt O75417, sequence (whole entry, unmodified, looked up): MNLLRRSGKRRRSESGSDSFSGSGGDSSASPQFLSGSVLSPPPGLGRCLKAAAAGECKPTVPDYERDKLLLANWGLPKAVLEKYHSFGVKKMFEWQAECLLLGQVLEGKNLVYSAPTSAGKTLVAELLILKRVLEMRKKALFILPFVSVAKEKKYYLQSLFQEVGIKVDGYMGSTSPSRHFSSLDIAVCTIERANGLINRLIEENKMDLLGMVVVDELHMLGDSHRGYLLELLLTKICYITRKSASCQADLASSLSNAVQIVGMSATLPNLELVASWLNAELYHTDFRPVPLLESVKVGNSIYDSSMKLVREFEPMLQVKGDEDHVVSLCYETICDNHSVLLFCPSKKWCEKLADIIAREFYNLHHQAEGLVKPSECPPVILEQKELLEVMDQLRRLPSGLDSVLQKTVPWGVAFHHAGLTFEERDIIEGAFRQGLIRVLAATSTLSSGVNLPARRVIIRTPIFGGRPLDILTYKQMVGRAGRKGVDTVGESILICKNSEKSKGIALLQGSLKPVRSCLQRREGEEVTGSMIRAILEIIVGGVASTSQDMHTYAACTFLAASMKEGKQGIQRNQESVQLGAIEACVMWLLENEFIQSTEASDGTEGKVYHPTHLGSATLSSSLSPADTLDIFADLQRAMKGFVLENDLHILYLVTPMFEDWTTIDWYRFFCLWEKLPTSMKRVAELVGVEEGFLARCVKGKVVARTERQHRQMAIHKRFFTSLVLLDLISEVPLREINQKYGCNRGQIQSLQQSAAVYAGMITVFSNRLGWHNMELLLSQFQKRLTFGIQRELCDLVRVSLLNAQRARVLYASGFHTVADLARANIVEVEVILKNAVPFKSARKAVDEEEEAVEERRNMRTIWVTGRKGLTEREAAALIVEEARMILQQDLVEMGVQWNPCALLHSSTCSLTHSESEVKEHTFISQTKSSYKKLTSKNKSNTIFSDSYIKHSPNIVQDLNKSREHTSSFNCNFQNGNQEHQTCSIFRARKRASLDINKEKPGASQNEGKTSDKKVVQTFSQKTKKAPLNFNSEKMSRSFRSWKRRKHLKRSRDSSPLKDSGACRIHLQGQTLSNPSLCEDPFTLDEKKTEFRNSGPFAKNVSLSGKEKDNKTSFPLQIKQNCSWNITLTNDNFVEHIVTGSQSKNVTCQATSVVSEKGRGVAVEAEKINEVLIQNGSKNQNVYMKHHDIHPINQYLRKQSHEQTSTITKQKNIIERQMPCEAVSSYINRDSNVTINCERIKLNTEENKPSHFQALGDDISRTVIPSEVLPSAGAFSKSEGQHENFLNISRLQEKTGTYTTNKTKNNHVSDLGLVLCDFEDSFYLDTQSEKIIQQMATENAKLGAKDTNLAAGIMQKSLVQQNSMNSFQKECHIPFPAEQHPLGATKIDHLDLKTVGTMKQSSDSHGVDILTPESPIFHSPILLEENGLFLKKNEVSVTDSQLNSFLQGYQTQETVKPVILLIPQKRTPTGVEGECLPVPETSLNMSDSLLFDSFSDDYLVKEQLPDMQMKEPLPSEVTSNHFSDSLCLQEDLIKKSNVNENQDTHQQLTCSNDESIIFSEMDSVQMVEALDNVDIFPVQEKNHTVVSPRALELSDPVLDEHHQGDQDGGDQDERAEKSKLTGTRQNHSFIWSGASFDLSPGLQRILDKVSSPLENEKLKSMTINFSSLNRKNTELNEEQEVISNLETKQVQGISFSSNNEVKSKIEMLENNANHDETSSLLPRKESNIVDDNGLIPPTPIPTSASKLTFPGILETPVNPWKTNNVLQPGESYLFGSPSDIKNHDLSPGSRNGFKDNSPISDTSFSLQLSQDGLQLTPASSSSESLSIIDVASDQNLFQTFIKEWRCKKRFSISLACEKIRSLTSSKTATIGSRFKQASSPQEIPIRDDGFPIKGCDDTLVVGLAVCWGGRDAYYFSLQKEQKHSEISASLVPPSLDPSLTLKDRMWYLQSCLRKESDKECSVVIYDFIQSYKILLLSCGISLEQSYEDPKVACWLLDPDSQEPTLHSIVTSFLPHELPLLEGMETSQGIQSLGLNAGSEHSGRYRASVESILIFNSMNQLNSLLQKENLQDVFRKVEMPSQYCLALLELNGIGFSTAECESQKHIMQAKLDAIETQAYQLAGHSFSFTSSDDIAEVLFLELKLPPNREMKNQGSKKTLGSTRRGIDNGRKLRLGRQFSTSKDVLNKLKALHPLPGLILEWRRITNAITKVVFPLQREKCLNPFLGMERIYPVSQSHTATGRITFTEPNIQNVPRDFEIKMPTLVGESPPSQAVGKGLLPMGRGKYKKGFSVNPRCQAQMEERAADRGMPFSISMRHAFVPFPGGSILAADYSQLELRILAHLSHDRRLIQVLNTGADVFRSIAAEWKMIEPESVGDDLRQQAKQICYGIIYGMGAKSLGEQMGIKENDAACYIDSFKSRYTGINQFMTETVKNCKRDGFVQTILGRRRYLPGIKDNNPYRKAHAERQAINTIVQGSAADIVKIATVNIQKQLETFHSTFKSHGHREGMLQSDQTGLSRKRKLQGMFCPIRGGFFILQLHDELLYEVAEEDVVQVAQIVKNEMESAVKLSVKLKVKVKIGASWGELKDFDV
Observed: enzyme activity
Mode: inhibitor
Tested at: 77 µM
Reference: untreated
SMILES	remaining activity
O=c1[nH]c(=O)c2nc3ccccc3nc2[nH]1	95.6%
Cc1[nH]nc2ccc(-c3cncc(OC[C@@H](N)Cc4ccccc4)c3)cc12	109%
CCOC(=O)OC(C)OC1=C(C(=O)Nc2ccccn2)N(C)S(=O)(=O)c2ccccc21 (stereo not shown)	95.1%
Cc1ccc(S(=O)(=O)NC(=O)NN2CC3CCC[C@@H]3C2)cc1 (stereo in doubt)	93.3% and 98.1%

Series 5
SMILES: COc1ccc2[nH]c3c4[nH]c5ccc(OC)cc5c4c4c(c3c2c1)C(=O)NC4=O
Observed: binding
Tested at: 1 µM
target	assay	remaining binding
Homeodomain-interacting protein kinase 2 (HIPK2, Homo sapiens, UniProt Q9H2X6)	competition with immobilised ligand	64%
Mitogen-activated protein kinase kinase kinase 5 (MAP3K5, Homo sapiens, UniProt Q99683)		83%
Cyclin-dependent kinase 17 (CDK17, Homo sapiens, UniProt Q00537)	competition with immobilised ligand	72%

Series 6
SMILES: Cc1c[nH]c2nccc(Oc3c(F)cc(Nc4cc(Cl)nc(N)n4)cc3F)c12
Tested at: 0.1 µM
target	assay	remaining binding [%]
Platelet-derived growth factor receptor alpha (PDGFRA, Homo sapiens, UniProt P16234)	cell-free assay, competition with immobilised ligand	84
Mitogen-activated protein kinase 9 (MAPK9, Homo sapiens, UniProt P45984)	cell-free assay, competition with immobilised ligand	93
Proto-oncogene tyrosine-protein kinase receptor Ret (RET, Homo sapiens, UniProt P07949)	cell-free assay, competition with immobilised ligand	97
Calcium/calmodulin-dependent protein kinase type II subunit alpha (CAMK2A, Homo sapiens, UniProt Q9UQM7)	cell-free assay, competition with immobilised ligand	70
Mitogen-activated protein kinase kinase kinase 7 (MAP3K7, Homo sapiens, UniProt O43318)	cell-free assay, competition with immobilised ligand	92
Serine/threonine-protein kinase RIO1 (RIOK1, Homo sapiens, UniProt Q9BRS2)	cell-free assay, competition with immobilised ligand	100
Insulin-like growth factor 1 receptor (IGF1R, Homo sapiens, UniProt P08069)	cell-free assay, competition with immobilised ligand	86
Glycogen synthase kinase-3 beta (GSK3B, Homo sapiens, UniProt P49841)	cell-free assay, competition with immobilised ligand	98
Phosphatidylinositol 4,5-bisphosphate 3-kinase catalytic subunit gamma isoform (PIK3CG, Homo sapiens, UniProt P48736)	cell-free assay, competition with immobilised ligand	88
Mitogen-activated protein kinase kinase kinase kinase 5 (MAP4K5, Homo sapiens, UniProt Q9Y4K4)	cell-free assay, competition with immobilised ligand	93
Serine/threonine-protein kinase TAO1 (TAOK1, Homo sapiens, UniProt Q7L7X3)	cell-free assay, competition with immobilised ligand	84
Serine/threonine-protein kinase tousled-like 2 (TLK2, Homo sapiens, UniProt Q86UE8)	cell-free assay, competition with immobilised ligand	95
Atypical kinase COQ8B, mitochondrial (COQ8B, Homo sapiens, UniProt Q96D53)	cell-free assay, competition with immobilised ligand	88
Tyrosine-protein kinase ABL1, phosphorylated (ABL1, Homo sapiens, UniProt P00519, Q252H)	cell-free assay, competition with immobilised ligand	91
G protein-coupled receptor kinase 4 (GRK4, Homo sapiens, UniProt P32298)	cell-free assay, competition with immobilised ligand	100
Phosphatidylinositol 3-kinase catalytic subunit type 3 (PIK3C3, Homo sapiens, UniProt Q8NEB9)	cell-free assay, competition with immobilised ligand	67
Ribosomal protein S6 kinase alpha-5, C-terminal kinase domain (RPS6KA5, Homo sapiens, UniProt O75582)	cell-free assay, competition with immobilised ligand	93
Mitogen-activated protein kinase kinase kinase 11 (MAP3K11, Homo sapiens, UniProt Q16584)	cell-free assay, competition with immobilised ligand	100
Serine/threonine-protein kinase Nek6 (NEK6, Homo sapiens, UniProt Q9HC98)	cell-free assay, competition with immobilised ligand	99
Cyclin-dependent kinase 19 (CDK19, Homo sapiens, UniProt Q9BWU1)	competition binding	80
Serine/threonine-protein kinase 25 (STK25, Homo sapiens, UniProt O00506)	cell-free assay, competition with immobilised ligand	100
Rhodopsin kinase GRK7 (GRK7, Homo sapiens, UniProt Q8WTQ7)	cell-free assay, competition with immobilised ligand	68
Casein kinase I isoform delta (CSNK1D, Homo sapiens, UniProt P48730)	cell-free assay, competition with immobilised ligand	100
Eukaryotic translation initiation factor 2-alpha kinase 1 (EIF2AK1, Homo sapiens, UniProt Q9BQI3)	cell-free assay, competition with immobilised ligand	77
LIM domain kinase 1 (LIMK1, Homo sapiens, UniProt P53667)	cell-free assay, competition with immobilised ligand	87

Series 7
SMILES: CC(C)(C)c1cnc(CSc2cnc(NC(=O)C3CCN(CCCCCSc4cccc5c4CN(C4CCC(=O)NC4=O)C5=O)CC3)s2)o1 (stereo not shown)
Host: NSG mouse, HuT78 xenograft
Dose: dose not given
conditions	tumour volume
intraperitoneal, day 10	41.6 mm³ and 52.6 mm³ and 10.2 mm³ and 66 mm³
subcutaneous, day 8	74.4 mm³ and 62.5 mm³ and 21.4 mm³ and 32 mm³
subcutaneous, day 6	7.8 mm³ and 55.3 mm³ and 13.5 mm³
subcutaneous, day 18	397 mm³ and 1030 mm³ and 1060 mm³ and 256 mm³ and 845 mm³
intraperitoneal, day 5	66 mm³ and 28.7 mm³ and 84.7 mm³ and 62.5 mm³

Series 8
Host: human
Matrix: microsomes or S9
Tested at: 2 µM
Time: 0.5 h
Structure (SMILES)	remaining compound [%]
CC(=O)c1c(NN2CCOCC2)oc(C)cc1=O	90.6
O=c1ccc(-c2ccc(S(=O)(=O)NCc3cccc(Br)c3)s2)n[nH]1	14.7
COc1cc(Cl)c(NC(=O)c2cc(S(=O)(=O)N3CCOCC3)cn2C)c(OC)c1	59.8

Mixed results
SMILES	cell line	assay	conditions	how to read	endpoint	value
O=C(COc1ccc(Cl)cc1)NC1CCC(NC(=O)COc2ccc(Cl)cc2)CC1 (stereo not shown)	HEK293T ATF4-firefly luciferase reporter	integrated stress response, measured: ATF4	concentration not given	reference: DMSO	reporter signal	76.7% and 65.6% and 76.4% and 67% and 64.3% and 72.6%
